Results pooled from the literature.
Compare with care: the assays were run in different laboratories. “And” joins repeats or separate records; there may be more than shown. ± gives the spread as reported.
HLA class I histocompatibility antigen, A alpha chain allele A*02:01: HLA class I histocompatibility antigen, A alpha chain, allele A*02:01 (Homo sapiens, UniProt P04439)
Chain of UniProt P48067 (whole entry, looked up): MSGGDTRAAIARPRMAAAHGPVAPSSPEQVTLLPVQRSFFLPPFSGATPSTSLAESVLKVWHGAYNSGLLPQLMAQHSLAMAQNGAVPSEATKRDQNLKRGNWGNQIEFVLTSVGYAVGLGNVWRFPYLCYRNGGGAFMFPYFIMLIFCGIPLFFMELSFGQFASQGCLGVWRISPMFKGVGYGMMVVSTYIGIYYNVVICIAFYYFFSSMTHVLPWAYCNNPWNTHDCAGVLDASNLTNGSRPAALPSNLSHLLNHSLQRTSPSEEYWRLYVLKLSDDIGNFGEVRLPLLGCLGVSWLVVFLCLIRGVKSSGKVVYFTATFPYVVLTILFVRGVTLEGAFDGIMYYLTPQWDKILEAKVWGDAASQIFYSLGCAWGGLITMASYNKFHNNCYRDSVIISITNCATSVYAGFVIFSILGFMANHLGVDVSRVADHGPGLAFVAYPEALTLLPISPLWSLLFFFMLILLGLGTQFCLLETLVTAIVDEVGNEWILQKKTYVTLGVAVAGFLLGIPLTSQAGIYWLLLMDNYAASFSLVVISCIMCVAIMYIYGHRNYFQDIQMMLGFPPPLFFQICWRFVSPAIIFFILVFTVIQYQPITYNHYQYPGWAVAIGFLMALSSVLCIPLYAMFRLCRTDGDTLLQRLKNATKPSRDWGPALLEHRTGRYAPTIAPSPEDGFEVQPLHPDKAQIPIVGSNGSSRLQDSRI
Chain of UniProt Q64663 (whole entry, unmodified, looked up): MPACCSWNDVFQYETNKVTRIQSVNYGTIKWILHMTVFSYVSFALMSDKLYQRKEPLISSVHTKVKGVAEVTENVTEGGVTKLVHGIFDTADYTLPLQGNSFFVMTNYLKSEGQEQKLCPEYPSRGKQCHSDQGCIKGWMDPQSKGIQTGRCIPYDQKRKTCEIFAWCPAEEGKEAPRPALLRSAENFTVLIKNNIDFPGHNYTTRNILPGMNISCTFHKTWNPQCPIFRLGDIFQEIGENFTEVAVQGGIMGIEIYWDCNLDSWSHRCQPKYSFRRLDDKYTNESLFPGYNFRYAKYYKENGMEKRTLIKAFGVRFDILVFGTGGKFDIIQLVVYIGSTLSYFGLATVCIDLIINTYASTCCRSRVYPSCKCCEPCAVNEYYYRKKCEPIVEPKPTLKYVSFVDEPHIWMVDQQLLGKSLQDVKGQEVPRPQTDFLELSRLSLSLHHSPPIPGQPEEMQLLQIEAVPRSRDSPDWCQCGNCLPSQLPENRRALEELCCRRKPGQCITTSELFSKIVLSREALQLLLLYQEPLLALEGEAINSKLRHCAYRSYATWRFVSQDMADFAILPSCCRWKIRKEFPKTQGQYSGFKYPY
Chain of UniProt O00482 (whole entry, looked up): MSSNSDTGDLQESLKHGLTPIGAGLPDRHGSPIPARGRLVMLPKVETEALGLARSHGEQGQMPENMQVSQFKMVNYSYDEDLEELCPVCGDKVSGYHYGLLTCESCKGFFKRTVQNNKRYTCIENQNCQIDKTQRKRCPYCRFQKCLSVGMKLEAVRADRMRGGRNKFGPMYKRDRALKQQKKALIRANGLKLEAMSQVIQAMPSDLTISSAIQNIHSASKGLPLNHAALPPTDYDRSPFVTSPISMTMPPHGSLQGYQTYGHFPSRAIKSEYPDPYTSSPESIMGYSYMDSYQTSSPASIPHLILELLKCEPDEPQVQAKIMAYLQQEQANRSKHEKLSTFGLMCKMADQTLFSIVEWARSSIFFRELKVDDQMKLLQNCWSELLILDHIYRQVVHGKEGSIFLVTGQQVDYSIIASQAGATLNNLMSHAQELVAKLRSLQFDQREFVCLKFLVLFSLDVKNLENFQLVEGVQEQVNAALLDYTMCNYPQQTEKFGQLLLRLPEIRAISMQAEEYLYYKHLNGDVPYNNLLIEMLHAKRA
Chain of UniProt P03372 (whole entry, looked up): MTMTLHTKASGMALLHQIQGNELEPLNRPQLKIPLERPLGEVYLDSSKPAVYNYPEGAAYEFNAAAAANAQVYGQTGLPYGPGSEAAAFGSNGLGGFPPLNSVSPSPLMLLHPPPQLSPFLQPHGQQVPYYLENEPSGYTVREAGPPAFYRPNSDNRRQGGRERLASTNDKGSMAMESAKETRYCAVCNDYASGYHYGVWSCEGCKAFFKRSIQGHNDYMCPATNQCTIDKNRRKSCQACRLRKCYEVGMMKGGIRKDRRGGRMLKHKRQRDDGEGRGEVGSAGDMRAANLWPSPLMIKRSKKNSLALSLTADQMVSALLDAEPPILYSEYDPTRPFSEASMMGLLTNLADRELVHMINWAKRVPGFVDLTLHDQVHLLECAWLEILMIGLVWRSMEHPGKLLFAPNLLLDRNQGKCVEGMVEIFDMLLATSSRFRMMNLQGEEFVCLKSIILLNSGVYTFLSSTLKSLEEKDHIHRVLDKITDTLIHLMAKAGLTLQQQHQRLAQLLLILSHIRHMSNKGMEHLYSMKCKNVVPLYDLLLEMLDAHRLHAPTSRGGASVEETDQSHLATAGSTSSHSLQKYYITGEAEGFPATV
Chain of UniProt P0A7Z4 (whole entry, looked up): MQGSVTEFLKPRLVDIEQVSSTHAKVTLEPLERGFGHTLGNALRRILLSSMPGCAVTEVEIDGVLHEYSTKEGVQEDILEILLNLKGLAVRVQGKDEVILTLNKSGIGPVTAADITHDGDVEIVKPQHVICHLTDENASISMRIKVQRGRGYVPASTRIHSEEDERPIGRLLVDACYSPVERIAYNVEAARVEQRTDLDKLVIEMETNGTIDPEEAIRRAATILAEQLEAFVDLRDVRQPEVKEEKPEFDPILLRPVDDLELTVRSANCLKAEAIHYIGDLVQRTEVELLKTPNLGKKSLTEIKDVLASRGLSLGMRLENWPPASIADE
Chain of UniProt P18206 (whole entry, looked up): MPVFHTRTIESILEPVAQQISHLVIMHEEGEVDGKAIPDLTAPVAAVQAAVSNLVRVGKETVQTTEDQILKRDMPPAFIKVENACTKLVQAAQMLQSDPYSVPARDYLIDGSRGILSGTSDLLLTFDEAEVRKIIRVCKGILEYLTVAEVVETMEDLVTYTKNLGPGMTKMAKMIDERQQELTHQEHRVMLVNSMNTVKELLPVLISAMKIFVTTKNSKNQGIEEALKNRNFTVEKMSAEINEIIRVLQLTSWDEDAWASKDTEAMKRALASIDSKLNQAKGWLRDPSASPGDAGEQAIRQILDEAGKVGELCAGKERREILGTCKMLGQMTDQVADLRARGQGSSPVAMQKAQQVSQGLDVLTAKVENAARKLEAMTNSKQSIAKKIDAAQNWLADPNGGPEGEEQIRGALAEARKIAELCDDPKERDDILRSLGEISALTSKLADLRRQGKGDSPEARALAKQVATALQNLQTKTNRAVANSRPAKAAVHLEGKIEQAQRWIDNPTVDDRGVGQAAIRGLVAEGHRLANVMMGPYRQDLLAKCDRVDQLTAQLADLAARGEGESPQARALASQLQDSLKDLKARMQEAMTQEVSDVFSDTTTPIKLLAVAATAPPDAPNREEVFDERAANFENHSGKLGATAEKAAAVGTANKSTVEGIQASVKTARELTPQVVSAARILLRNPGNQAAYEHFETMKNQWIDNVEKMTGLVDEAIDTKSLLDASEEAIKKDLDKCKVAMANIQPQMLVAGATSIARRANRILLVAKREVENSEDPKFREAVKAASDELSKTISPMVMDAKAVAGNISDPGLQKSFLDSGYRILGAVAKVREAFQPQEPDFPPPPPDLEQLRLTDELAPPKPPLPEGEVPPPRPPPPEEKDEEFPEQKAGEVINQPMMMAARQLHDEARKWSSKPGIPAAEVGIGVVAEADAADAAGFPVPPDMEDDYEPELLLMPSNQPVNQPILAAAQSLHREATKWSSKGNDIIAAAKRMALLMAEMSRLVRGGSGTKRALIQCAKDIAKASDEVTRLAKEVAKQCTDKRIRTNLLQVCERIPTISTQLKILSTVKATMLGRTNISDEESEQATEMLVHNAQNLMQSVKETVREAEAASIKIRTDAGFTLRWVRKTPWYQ

Molecule = methyl-β-cyclodextrin; target or system = SLC6A9 (Homo sapiens, UniProt P48067); test = transport activity, [3H]glycine uptake; setting = 2.5 mg/mL, 1 min, together with: glycine 150 µM; how to read = higher = more transport; measurement = glycine uptake rate; result = 50.6 a.u. and 37.8 a.u. and 37.4 a.u. and 40.5 a.u.
Molecule = epigallocatechin; target or system = Estrogen receptor (ESR1, Homo sapiens, UniProt P03372); test = array formation, agonist; system = ERα-GFP PRL-HeLa; setting = 1 h; measurement = EC50; result = 1240 nM
Molecule = BODIPY FL GTPγS; target or system = TACO1 (Homo sapiens, UniProt Q9BSH4); test = nucleotide binding, fluorescence titration; measurement = Kd; result = 25000 nM
Molecule = FMLGEFLKL; target or system = HLA class I histocompatibility antigen, A alpha chain allele A*02:01; test = peptide-MHC stability, brefeldin A chase; system = peptide, T2 cells; measurement = complex half-life; result = > 7 h
Molecule = GSGAGKETRV; target or system = human MAGI1-3/6 PDZ construct (MBP fusion); test = surface plasmon resonance; system = peptide; setting = concentration not given; how to read = higher = stronger binding; measurement = normalised SPR binding response; result = 65.4 normalised RU
Molecule = WVFEHPETL; target or system = HLA class I histocompatibility antigen, A alpha chain allele A*02:01; test = peptide-MHC stability, brefeldin A chase; system = peptide, T2 cells; measurement = complex half-life; result = 1.58 h
Molecule = rhodamine-DOPE; target or system = Nuclear receptor subfamily 5 group A member 2, ligand-binding domain (NR5A2, Homo sapiens, UniProt O00482); test = FRET binding; setting = apparent value; measurement = Kd; result = 10.2 nM and ~10 nM
Molecule = BzATP; target or system = P2X purinoceptor 7 (P2rx7, Rattus norvegicus, UniProt Q64663, I214A); test = ion current, agonist, two-electrode voltage clamp; system = Xenopus oocytes; setting = 33 µM; measurement = normalized current; result = 0.874 and 0.988 and 0.95
Molecule = GSGAGHETIV; target or system = human SCRIB PDZ3-4 tandem (MBP fusion); test = surface plasmon resonance; system = peptide; setting = concentration not given; how to read = higher = stronger binding; measurement = normalised SPR binding response; result = 46 normalised RU
Molecule = GEMVGQARILAQATSDLVNAIKDA; target or system = Vinculin, Vd1 head domain (VCL, Homo sapiens, UniProt P18206); test = binding, isothermal titration calorimetry; system = peptide; setting = 25 °C; measurement = Kd; result = 304 ± 63 nM
Molecule = Phytol; target or system = uncharacterized protein (Drosophila suzukii, UniProt A0AB39ZGK5); test = bis-ANS displacement, fluorescence competition binding; setting = pH 7.4; measurement = IC50; result = > 50000 nM
Molecule = LMDLSTTPL; target or system = HLA class I histocompatibility antigen, A alpha chain allele A*02:01; test = peptide-MHC stability, brefeldin A chase; system = peptide, T2 cells; measurement = complex half-life; result = 2.19 h
Molecule = asialo ovine submaxillary mucin; target or system = mouse MGL-2; test = glycan microarray; measurement = Kd; result = 1.8 ± 0.6 nM
Molecule = 11-deoxycorticosterone; target or system = CYP11B2 (human); test = substrate binding, stopped-flow global kinetic fitting; system = purified enzyme; setting = model, linear, 4 state, CS-IF, together with: 10-fold excess adrenodoxin; measurement = Kd; result = 2020 nM
Molecule = sacituzumab; target or system = rat TROP2; test = binding, bio-layer interferometry; measurement = Kd; result = no binding
Molecule = Rifamycin B; target or system = DNA-directed RNA polymerase subunit alpha (rpoA, Escherichia coli, UniProt P0A7Z4); test = binding, competition pulldown mass spectrometry; system = Escherichia coli lysate; measurement = Kd; result = 82 nM
Molecule = colistin; target or system = Pseudomonas aeruginosa; test = broth microdilution; system = clinical isolate RKI-No_1/16; measurement = MIC; result = 1 µg/mL
Molecule = Peginesatide; target or system = UT7/EPO; test = RT-qPCR, item: PHLDA1; setting = concentration not given, 90 min, normalized to HPRT1; how to read = baseline: vehicle; measurement = mRNA level; result = 3.6 fold
Molecule = LMFGAPALV; target or system = HLA class I histocompatibility antigen, A alpha chain allele A*02:01; test = peptide-MHC stability, brefeldin A chase; system = peptide, T2 cells; measurement = complex half-life; result = > 24 h

Some of these lines once more:
Molecule = BzATP; target or system = P2X purinoceptor 7 (P2rx7, Rattus norvegicus, UniProt Q64663, I214A); test = ion current, agonist, two-electrode voltage clamp; system = Xenopus oocytes; setting = 33 µM; measurement = normalized current; result = 0.874 and 0.988 and 0.95
Molecule = WVFEHPETL; target or system = HLA class I histocompatibility antigen, A alpha chain allele A*02:01; test = peptide-MHC stability, brefeldin A chase; system = peptide, T2 cells; measurement = complex half-life; result = 1.58 h
